Measurements of several laboratories.
Each numbered part is a random draw from the data of one study; scales do not carry over between parts. Positions count from the first letter of the parent shown.

Sample 1 — technique: RNAcompete; form: RNA; sample: in vitro; tested at: 20 nM; notes: 7-mer, probes averaged, single round; reference: mean of 7-mers; reading: higher = stronger binding; quantity: 7-mer Z-score
Target: PABPC1L2, full length, GST fusion (mouse, UniProt A0ABA7IW68)
UAGCCAA: -0.11
CCUCGAG: -0.22
GCACCAA: 0.138
GCACUCA: 0.0261
GCCCACU: -0.213
GUGUAUU: -0.19
AGAUAAA: 1.94
GAAAGUA: 0.809
GCUGCUC: -0.24
UCCUAUG: -0.32
UGAGGGC: 0.204
GGAUCGA: 0.204
UCCCAUC: -0.438
ACAACAC: 0.296
UAAAGCC: 0.298
GUCUAUA: -0.193
AAUUCCG: 0.0315
CGAGCCC: -0.224
AGUGAUC: -0.278

Sample 2 — technique: RNA Bind-n-Seq; form: RNA; sample: in vitro; tested at: 365 nM; reference: no-protein control; reading: higher = stronger binding; quantity: RBNS enrichment (R)
Target: RNA binding protein fox-1 homolog 2, RRM domain, GST-SBP tag (RBFOX2, Homo sapiens, UniProt O43251-10, residues 100-194)
Notes: natural RNA segment, single round, ends assumed
All sequences stand within: GGGAGUUCUACAGUCCGACGAUC … UGGAAUUCUCGGGUGCCAA
Target sequence (chain): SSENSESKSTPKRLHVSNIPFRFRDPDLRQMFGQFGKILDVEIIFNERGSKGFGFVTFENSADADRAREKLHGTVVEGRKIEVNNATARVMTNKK
AGAUCGCCCGCAUUCCGGAGGCCUUCAAGUAAACGGCGCGCCCCACGAGACCCCGGCUUCCUUUCCCAAGCCUUCGGGCGUCUGUGUGCGCUCUGUGGAUGCCAGGGCCG: 0.357
GAGAAAUCCCAGGCCAGAACAGCUGGAGCUCUUAUGUAGCACACAAGGCUCGAACCAGCACCGAAUCAGCCCCUCUGCCCGCCCCACUCUACUGUGACUUUGAUUCAAGG: 0.271
GAUGCAAUUAUGUAACCAUUAAGCUGAUUCCGAGGCUGGCAGGCUAGGGCCGCCCCUCUGGAAAGGUUCCAUGUGUCUCCAUCCCCAUCCCUUACUCUUCGGGUCAGCUG: 0.302
CUGCUUCCUUGAUCACAGUUUCAAGAUGUGUUCUUGCUCUCAUCCUUCAUCAUUGACACUGACCCUAAAGAGGUCACUAGAUUUCUCCAAGGUCCUACCAUCUUAUAUGU: 0.239
AGGGCUGAGGGGAAGGGGCUAUGAAUGUUUGUAUACAUGUUCACAGGGCACGGAAAAUCUUAUGCUGCUCCGUCAUAAACCUACACCAAUGCCCAGCAAUCACCCUCCUC: 0.353
UAAGAAUAGCUAGGUUGUAUUAAAACAUGUAAGCUACUUUAAGUGAUAAAUCAAUAGCUAAAGUUUUCUCCUAACUUUAAGUCUGGUAAAUAUCUCUCAGGAAUGGAAGU: 0.566
UGGCUCAUCAGCCAGCAUUGGUGAAUAUUCAGUUUAGGGGAACAGUUCUAGGGAGUGAGACAUUUUUGGGAGCAGAGGAAAACUCUGCUGAUGUUCGGUCCUGGCAAACA: 0.609
ACUAACUCUGGUGAAGGGUUUGGAAACCAUAUGUGGUUCUAGAAUUAACUCCCCUUUCCCUCAAACUCUCACGGCCUGAUGAUUGUCCCUCUCAGGGAUGAGACAUGGAC: 0.456
UAUCUUAGGAGUUUAAUUUGCCCUUCUCUCCCCAUCUUCCCUCAGUUCCCAUAAAACCUUCAUUACACAUAAAGAUACACGUGGGGGUCAGUGAAUCUGCUUGCCUUUCC: 1.01
UUUAAUUCUAAUACGAUGUCAUGUUAAUUUCAUGUUGUGAUUAAUAAAAGCAUUUUUUCUUCACUCAGUUUUAUAUAGGUUCCUGAACUCUAUCCACAUGCCGCCAUAGC: 0.749
UGGCCCGGUGAUGAAGGCUUUCUACUCCUUAACAGGUACAGUUGGAUCCAUCGCUGAUGGUGUUUCUUUAGCCCCAUCCCAAUUGGCCUAAAACAUUUGUCACCAGAACA: 0.39
GAAAUUGUAGAUGUUUUUAGAAAAACUUGUGAAUGAAAAUGAAUCCAAGUGUUUCAUGUGAAGAUGUUGAGCCAUUGCUAUCAUGCAUUCCUGUCUCAUGGCAGAAAAUU: 3.22

Sample 3 — technique: DHFR PCA, deep sequencing; sample: yeast; together with: (+)-ABA 17 µM; reference: wild-type fitted maximum; reading: higher = stronger binding; quantity: relative binding score
Target: ABI1, truncated, D143A, DHFR fusion (Arabidopsis thaliana)
Notes: methotrexate growth selection, single substitutions
Starting sequence: PYL1, truncated, DHFR fusion (Arabidopsis thaliana); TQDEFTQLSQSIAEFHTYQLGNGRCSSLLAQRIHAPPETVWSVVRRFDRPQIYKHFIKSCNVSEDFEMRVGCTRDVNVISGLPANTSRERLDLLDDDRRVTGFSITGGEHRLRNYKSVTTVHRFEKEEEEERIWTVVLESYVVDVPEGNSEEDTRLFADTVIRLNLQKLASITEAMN; partner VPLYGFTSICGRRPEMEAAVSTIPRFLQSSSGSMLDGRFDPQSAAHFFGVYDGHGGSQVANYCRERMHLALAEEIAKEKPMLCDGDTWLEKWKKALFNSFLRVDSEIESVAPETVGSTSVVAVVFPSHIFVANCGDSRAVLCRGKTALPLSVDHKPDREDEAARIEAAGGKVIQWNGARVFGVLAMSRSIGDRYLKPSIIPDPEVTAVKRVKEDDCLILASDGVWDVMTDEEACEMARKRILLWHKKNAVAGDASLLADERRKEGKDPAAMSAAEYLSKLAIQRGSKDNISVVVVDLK
V142E: 83.2%
V118F: 22.2%
E14P: 15%
E139G: -4.01%
R32V: 85.5%
Y141W: -2.23%
A158R: -1.46%
A84E: 16.9%
T106L: 88.1%
V161H: 1.21%
E125G: 85%
G21K: 82.5%
R98V: 55.1%
T73N: 61.5%
L94D: -1.89%
A30D: 41.4%

Sample 4 — target: CREBL2, bZIP domain (human); technique: DHFR protein complementation; sample: yeast; reference: wild-type JUN-FOS pair; reading: higher = stronger binding; quantity: binding fitness
Notes: single substitutions, most at no-binding floor
Starting sequence: JUN, bZIP domain (human); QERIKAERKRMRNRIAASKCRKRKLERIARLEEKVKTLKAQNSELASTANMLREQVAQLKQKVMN; partner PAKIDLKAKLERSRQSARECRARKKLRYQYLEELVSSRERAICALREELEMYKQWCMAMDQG
L31Q: -1.56 natural log
L45Q: -1.51 natural log
Q58P: -1.47 natural log
R30F: -1.51 natural log
Q41W: -1.5 natural log
L52V: -1.57 natural log
T48K: -1.51 natural log
Q55Y: -1.5 natural log
E32T: -1.34 natural log
A57R: -1.09 natural log
R30T: -1.35 natural log
L52M: -1.53 natural log
N42Y: -1.58 natural log
L45S: -1.57 natural log
K39P: -1.5 natural log
E32Q: -1.37 natural log
M51R: -1.37 natural log

Sample 5 — target: CCNE1, cyclin fold, Cln2 fusion (human); technique: yeast growth competition, sequencing; sample: yeast; notes: strong parent motif; reference: not given; reading: higher = stronger binding; quantity: normalised enrichment score
Starting sequence: PKMYT1 docking peptide (human); SFEPRNLLSLFED
L10F: 1.91
R5N: 0.69
R5P: 0.598
D13L: 2.58
E12Q: 1.86
D13C: 2.14
P4N: 0.417
F11G: 0.0419
L8I: 1.57
L8K: 0.618
F2R: 0.707
F2Q: 0.0248
E12K: 1.12
D13I: 1.94
L8S: 0.524
F11H: 0.747
S9M: 1.46
S1C: 2.04
S1F: 2.05

Sample 6 — technique: protein binding microarray; form: double-stranded DNA, one strand shown; sample: in vitro; tested at: not given; reference: not given; reading: higher = stronger binding; quantity: E-score
Target: Histone acetyltransferase KAT6A, winged helix 2, GST fusion (KAT6A, Homo sapiens, UniProt Q92794, residues 85-181)
Notes: 8-mer, flanks averaged, mean of 2 arrays, mostly near background
Residues (chain): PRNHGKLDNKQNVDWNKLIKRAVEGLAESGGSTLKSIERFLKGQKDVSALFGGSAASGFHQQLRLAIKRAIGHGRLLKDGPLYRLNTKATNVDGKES
AGCAAGCA: -0.085
ATGTTTGA: -0.103
TGAAAACA: 0.0173
ACAGGAGC: 0.0555
AAAAAGAC: 0.0384
ACTTGGTA: -0.0497
CAAACTCC: 0.0762
GTCACATA: -0.0623
CACTCAAA: 0.118
CCGGCCGA: 0.201
CAGACAGG: 0.00206
ACTCGGTC: -0.0247
AAATCAGT: -0.0232
CACTTCGC: 0.0828
CATGAAAA: -0.00153
CACGCCAC: -0.0147
ATAGACCG: 0.0525
CATGCCGC: 0.21
GCCGTTAC: 0.0151
AAGTTTCA: 0.158
CTTCGTGA: 0.101
GGGTTACA: 0.00126

Sample 7 — technique: RNA Bind-n-Seq; form: RNA; sample: in vitro; tested at: 100 nM; reference: input RNA pool; reading: higher = stronger binding; quantity: bound/input enrichment
Target: RING finger protein unkempt homolog, zinc fingers 1-6, SBP tag (UNK, Homo sapiens, UniProt Q9C0B0, residues 30-357)
Chain of UniProt Q9C0B0 (30-357, looked up): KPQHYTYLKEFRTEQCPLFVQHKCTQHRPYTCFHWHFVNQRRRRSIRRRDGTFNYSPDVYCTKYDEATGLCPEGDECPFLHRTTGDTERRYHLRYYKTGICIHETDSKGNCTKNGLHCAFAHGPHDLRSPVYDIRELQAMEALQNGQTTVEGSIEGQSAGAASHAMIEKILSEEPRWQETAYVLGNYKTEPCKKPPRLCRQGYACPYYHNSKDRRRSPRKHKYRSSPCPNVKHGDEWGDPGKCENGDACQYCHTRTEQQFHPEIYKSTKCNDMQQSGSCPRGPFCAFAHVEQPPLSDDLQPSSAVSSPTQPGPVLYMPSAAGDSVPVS
Notes: RNA with constant flanks, vertebrate orthologous sites, ends assumed
All sequences stand within: GGGAGUUCUACAGUCCGACGAUC … CAACAGAGGAUUGAGCAUCA
GAACAAAAAUGUUUCCACUGGGUUUUGCCUGUAAGAAAAAAAUGAACCUGAGCACACAAAUAGAGCUUUUUAAAUAGCACUAACCAAUGCCUUUUAGAUGUAUUUUUGAUGUAUAUAUCU: 0.992 ratio
GUGUUUUGUACAGGGCAUUCUCUGUACUAGUUUGUUGUGGUUAUAAAACAAUUAGCAAAAUAGCCUACAUUUGUAUUUAUUUUCUAUUCCAUAUUUUUGCGCCACGUUGUUUUCUCUCAA: 0.849 ratio
AGCAACCCAUGGAUUCAGGACUGGUUUUACAAAUAUACCAAGUAGAUACGGAAGUAACAACAGAAUUGGACAGCCAAGACCAUGAUAUACCCUAACUUAUUUUUAUAAGGAAUAUUGACU: 0.781 ratio
AUGCAGGAAUGGCAUGUGAUGUUUGAAAUACCCACAGUACUCACUUUGUCCAAACAAUUCUACUAAUUGCCUAGAUAUACUUUUUCUUACCUGUUAUUUAUCAAUUUUUCCCAGUAUUUU: 1.17 ratio
GAAUUGAACAAAAACGUUUCCACUGGGUUUUGCCUGUUUGAAAAUACGUACCUGAGCACAUAGAGCUUUUUAAUAGCACUAACCAAUGCCUUUUUAGAUGUAUUUUUGAUGUAUAUAUCU: 0.714 ratio
GCAAAAGGCCAAAUUCCCUCCUCCCUUCUACUGCUUCUACCAACUGGAAGCACAGAAAACUAGAAUUUCAUUUAUUUUAUUUUUUUAAUUGAUUUCUCGUAACAUCCAAUAGGAAUGCUA: 3.77 ratio
UCACUUGUUGAUUAUAAUUACUUAGAUAAGAAAUUUUUACUGUUGAUGGUUGCCGUGAAAAUGGCCUAUCCUAUUUUUUUUUUAAAUCAGUUUUGCAAAGAUCAGUUUUGUGGCUUCGUA: 0.512 ratio
CUCCUAGCGUCAUACCAGCAUCUUCGCUAUCAGACGUGCACAGCUUACAAAGGAACAGUCUAGUGGUAUGGGUUAUUUUCAUUUCAAAACCUGCUUUUUUUUUUCCCAAGACUGAAAAAA: 0.51 ratio
GUCGUCUGAUUGGAUAAAGACUGUCCCAAGUUACAACCAAACAAAUAGUUCCAUGGACUUUAGAAAUUAUAUGAUGAGAGACGAGAAUCUGGAACCGCUCCCCAAAAACUGGGAAAUGGC: 1.11 ratio
CAUCUCUUUUUUAUAUGUCCAUAAAUGGGUUUGAAUUUUUAAACAGUUACUAGUUUUAAUUAGCUCUGCUCUCAUGAAGUAUUAUUACAGUUCACCACAAAUACAACUGUCUGAAUUACU: 0.748 ratio
GAAGACGGCGACUGUACAUUAUCUCACUUAGAGAAUAUGAAAAUCAUUUUGUUUUGAAGCUAGGUAUUAAACUGGAGUAGCUAUUACGUUCUUGAAAACUGGGGCAGGUGUGCCCUUGAC: 1.46 ratio

A few entries again (sample 4):
Q58P: -1.47 natural log
R30F: -1.51 natural log
Q41W: -1.5 natural log
Q55Y: -1.5 natural log
E32Q: -1.37 natural log
T48K: -1.51 natural log
R30T: -1.35 natural log
